Measured values collected from several papers.
Protocols differ between the studies behind these lines. Numbers after ± are the reported error.

For CC(=NNC(=O)CN1c2c(-c3ccccc3)n[nH]c2-c2ccccc2S1(=O)=O)c1ccc2ccccc2c1, the EC50 was greater than 100000 nM (HIV-1; viral replication; PBMC).
The EC50 of Nc1nc(F)nc2c1ncn2[C@@H]1O[C@H](CO)[C@@H](O)[C@@H]1O is reported as 8890 nM (human coronavirus NL63; cytopathic effect, MTS; LLC-MK2; 5 days).
With O=C(Cc1csc2nc(-c3ccc(Br)cc3)cn12)NN=C1CCC(c2ccccc2)CC1 (stereo not drawn) the EC50 was greater than 100 µg/mL (feline herpesvirus; viral cytopathic effect; CRFK).
Cc1ccc(S(=O)(=O)N2C(=O)CSC2c2ccc(C(C)C)cc2)cc1 (stereo not drawn) has an EC50 of greater than 100000 nM (herpes simplex virus 1; viral cytopathicity; HEL, KOS TK-deficient acyclovir-resistant).
For O=C(CN1c2c(n[nH]c2-c2cccc(Cl)c2)-c2ccccc2S1(=O)=O)NN=Cc1ccc(Br)cc1, the EC50 was 5200 nM (HIV-1; viral replication; PBMC).
The EC50 of NC(=O)c1ncn([C@@H]2O[C@H](CO)[C@@H](O)[C@H]2O)n1 is reported as 30000 nM (respiratory syncytial virus; viral replication; HeLa).
The EC50 of O=C(C=Cc1ccc2ccccc2n1)c1cc(Cl)ccc1O is reported as 2340 nM (Alphacoronavirus 1; viral replication, inhibitor; CRFK; 2 h).
For Nc1ccn(C[C@@H](CO)OCP(=O)(O)O)c(=O)n1, the EC50 was 2000 ± 1400 nM (Human alphaherpesvirus 1; antiviral activity; HEL, KOS, TK-deficient, acyclovir-resistant).
CCOC(=O)C(C)NP(=O)(COC(CF)CN1CN2C=C(c3ccc([N+](=O)[O-])cc3)NC2=NC1=O)NC(C)C(=O)OCC (stereo not drawn) gave an EC50 of greater than 100000 nM (herpes simplex virus 1; cytopathic effect; HEL, KOS, TK-deficient, acyclovir-resistant).
O=C(Cc1csc2nc(-c3ccc(Br)cc3)cn12)NN=C1CCCCC1 gave an EC50 of greater than 100 µg/mL (feline herpesvirus; viral cytopathic effect; CRFK).
With O=C(Nc1ccc(F)cc1)c1cn(Cc2ccc(F)cc2)cc(O)c1=O the EC50 was 870 nM (Human betaherpesvirus 5; viral replication, inhibitor; 7 days).
For O=c1ccn([C@@H]2CS[C@H](CO)[C@H]2F)c(=O)[nH]1, the EC50 was greater than 100 µg/mL (Coxsackievirus B3; viral cytopathic effect; HeLa).
O=C(N/N=C1\C(=O)Nc2ccc(Cl)cc21)N/N=C1\C(=O)Nc2ccc(Cl)cc21 has an EC50 of greater than 100000 nM (respiratory syncytial virus; viral replication; HeLa).
For O=C(NCCc1ccc(F)cc1F)c1cn(Cc2ccc(F)cc2)cc(O)c1=O, the EC50 was 430 nM (Human betaherpesvirus 5; viral replication, inhibitor; 7 days).
With O=C(CN1c2c(n[nH]c2-c2cccc(Cl)c2)-c2ccccc2S1(=O)=O)NN=Cc1cccc([N+](=O)[O-])c1 the EC50 was 92400 nM (HIV-1; viral replication; PBMC).
For `equisetin`, the EC50 was 3000 nM (Trichomonas vaginalis; viability; 17 h).
CN1c2ccc(-c3ccc(C#N)cc3)cc2[C@H]2[C@H](CCN2C(=O)c2cccc(F)c2)[C@@H]1CO has an EC50 of 1200 nM (respiratory syncytial virus; cytopathic effect; HEp-2, A2; 5 days, resynthesized sample).
For CC(C)(C)NC(=O)N[C@H](C(=O)N1C[C@H]2[C@@H]([C@H]1C(=O)NC(CC1CCC1)C(=O)C(N)=O)C2(C)C)C(C)(C)C (stereo partly drawn), the EC50 was 210 nM (Hepatitis C virus; viral replication, inhibitor; Huh7.5, GETYPE1B; 72 h, replicon).
The EC50 of O=c1cc(OCc2ccc(I)cc2)oc2ccc(OCc3cccc(Cl)c3)c(O)c12 is reported as 3000 to 4000 nM (Hepatitis C virus; viral replication, inhibitor; Huh-7, GETYPE1; 96 h, replicon).
CC(C)(C)C(=O)N(CCCCCCN1C[C@H](O)[C@@H](O)[C@H](O)[C@H]1CO)C1CCCCC1 gave an EC50 of 400 ± 600 nM (bovine viral diarrhea virus; MDBK; 22 h).
With O=Cc1cc(Cn2ccc(=O)[nH]c2=O)ccc1O the EC50 was greater than 100000 nM (human cytomegalovirus; cytopathic effect; HEL fibroblasts, Davis).
CC(=CC(=O)NCCCCNc1cc(C(F)(F)F)nc2c(C(F)(F)F)cccc12)C(=O)NCCCCNc1cc(C(F)(F)F)nc2c(C(F)(F)F)cccc12 has an EC50 of 2350 nM (Zika virus; viral cytopathic effect, visual CPE scoring; Vero).
The EC50 of O=C1/C(=N\NC(=S)NN=Cc2ccccc2)c2ccccc2N1Cc1ccccc1 is reported as greater than 20000 nM (respiratory syncytial virus; viral replication; HeLa).
O=C(NCc1c(F)cccc1Cl)c1cn(Cc2ccc(F)cc2)cc(O)c1=O gave an EC50 of 300 nM (Human betaherpesvirus 5; viral replication, inhibitor; 7 days).
Nc1ncnc2c1ncn2C[C@H](O)CO gave an EC50 of greater than 250000 nM (respiratory syncytial virus; viral replication; HeLa).
With O=C(NCc1cc(F)c(F)cc1F)c1cn(Cc2ccc(F)cc2)cc(O)c1=O the EC50 was 700 nM (Human betaherpesvirus 5; viral replication, inhibitor; 7 days).
N#CC1(C#N)C2C=CC(c3coc4cccc2c34)C1(C#N)C#N (stereo not drawn) has an EC50 of 7750 nM (Alphacoronavirus 1; viral replication, inhibitor; CRFK).
COc1cc(CN2CC3(CCN(S(=O)(=O)c4cn(C)cn4)CC3)c3c(n(C)c4cc(OC)ccc34)[C@H]2CO)cc(OC)c1 has an EC50 of 26800 nM (respiratory syncytial virus; cytopathic effect; HEp-2, A2; 5 days, resynthesized sample).
For O=C(NO)c1ccc(O)c(O)c1, the EC50 was 182000 ± 23000 nM (human cytomegalovirus; viral spread, GFP reporter; ARPE-19, BADrUL131-Y4 (AD169, GFP); 14 d).
With COC(=O)c1c[nH]c2ccc(CN3CCN(c4ccc(C(F)(F)F)cc4)CC3)cc2c1=O the EC50 was 85 to 90 nM (Plasmodium berghei; HepG2, liver stage; 44 h).
Nc1nc(O)c2ncn(COC(CO)CO)c2n1 has an EC50 of 1640 ± 220 nM (human cytomegalovirus; cytopathic effect; HEL fibroblasts, Davis).
Cc1ccc(S(=O)(=O)N2C(=O)CSC2c2ccccc2Cl)cc1 (stereo not drawn) has an EC50 of greater than 100000 nM (herpes simplex virus 1; viral cytopathicity; HEL, KOS TK-deficient acyclovir-resistant).
With Cc1cccc(-c2ccc([C@@H]3[C@@H](CO)N4CCCCN(S(=O)(=O)c5cn(C)cn5)C[C@@H]34)cc2)c1 the EC50 was 3300 nM (respiratory syncytial virus; cytopathic effect; HEp-2, A2; 5 days, resynthesized sample).
For Cc1ccc(S(=O)(=O)N2C(=O)CSC2c2ccccc2O)cc1 (stereo not drawn), the EC50 was greater than 100000 nM (herpes simplex virus 1; viral cytopathicity; HEL, KOS).
For COC(=O)N[C@H](C(=O)N1CCC[C@H]1c1ncc(-c2ccc(-c3ccc(-c4cnc([C@@H]5CCCN5C(=O)[C@@H](NC(=O)OC)C(C)C)[nH]4)cc3)cc2)[nH]1)C(C)C, the EC50 was 0.061 ± 0.015 nM (hepatitis C virus; viral replication, transient replicon; genotype 1b replicon NS5A L31V).
For O=C(NCc1ccc(F)cc1)c1cn(Cc2ccc(F)cc2)cc(O)c1=O, the EC50 was 780 nM (Human betaherpesvirus 5; viral replication, inhibitor; 7 days).
With NC(=O)c1ncn([C@@H]2O[C@H](CO)[C@@H](O)[C@H]2O)n1 the EC50 was 74600 nM (Alphacoronavirus 1; viral replication, inhibitor; CRFK; 2 h).
Cc1ccc(S(=O)(=O)N2C(=O)CSC2c2cccc(Br)c2)cc1 (stereo not drawn) has an EC50 of greater than 100000 nM (herpes simplex virus 1; viral cytopathicity; HEL, KOS TK-deficient acyclovir-resistant).
With N#Cc1ccc(CNC(=O)c2cn(Cc3ccc(F)cc3)cc(O)c2=O)c(F)c1 the EC50 was 1200 nM (Human betaherpesvirus 5; viral replication, inhibitor; 7 days).

Repeated from above:
For O=c1ccn([C@@H]2CS[C@H](CO)[C@H]2F)c(=O)[nH]1, the EC50 was greater than 100 µg/mL (Coxsackievirus B3; viral cytopathic effect; HeLa).
With N#Cc1ccc(CNC(=O)c2cn(Cc3ccc(F)cc3)cc(O)c2=O)c(F)c1 the EC50 was 1200 nM (Human betaherpesvirus 5; viral replication, inhibitor; 7 days).
The EC50 of Nc1nc(F)nc2c1ncn2[C@@H]1O[C@H](CO)[C@@H](O)[C@@H]1O is reported as 8890 nM (human coronavirus NL63; cytopathic effect, MTS; LLC-MK2; 5 days).
With O=C(Cc1csc2nc(-c3ccc(Br)cc3)cn12)NN=C1CCC(c2ccccc2)CC1 (stereo not drawn) the EC50 was greater than 100 µg/mL (feline herpesvirus; viral cytopathic effect; CRFK).
